# Measured values collected from several papers.
# Lines come from different studies, so protocols differ.
# Target: Citron Rho-interacting kinase (CIT, Homo sapiens, UniProt O14578)
SMILES,test,setting,how to read,measurement,value
CNC1C[S+]2CC[S+]3CC[S+](C1)[Ru-4]321([N]=C=S)[n]2c3ccc(OC)cc3c3c4c(c5cc(F)c[n+]1c5c32)C(=O)NC4=O (centres unmarked),KinomeScan,0.1 µM,relative to: untreated,remaining binding,92%
COc1c(Cl)cccc1Nc1c(-c2ccncc2C#C[C@@]2(C)CCCN2C(=O)/C=C/CN(C)C)[nH]c2c1C(=O)NCC2,"binding, competition with immobilised ligand",3 µM,,remaining binding,0%
COc1cc(Nc2nc(C)cc(-c3cnn4nc(OC)ccc34)n2)cc(C(F)(F)F)c1,inhibitor,1 µM,relative to: control,remaining activity,100%
Cc1cnc2nc1Nc1cccc(c1)COC/C=C/COCc1cc(ccc1OCCN1CCOCC1)N2,cell-free assay,0.1 µM,,remaining signal,100%
C=CC(=O)N1CCCC(n2c(=O)c3ncccc3n(Cc3ccc(Oc4ccccc4)cc3)c2=O)C1 (centres unmarked),"cell-free assay, competition with immobilised ligand",1 µM,,remaining binding,93%
CNC(=O)C1CCN(c2cc(C)c(F)cc2NC(=O)c2ccc(-c3cc(O)ccc3C)c(C)c2)CC1,"binding, competition with immobilised ligand",1 µM,,remaining binding,94%
CCN1CCN(Cc2ccc(C(=O)Nc3ccc(C)c(NCc4cnc5[nH]ccc5c4OC)c3)cc2C(F)(F)F)CC1,"binding, competition with immobilised ligand",1 µM,,remaining binding,18%
Nc1ncc2c(n1)-c1c([nH]c3ccc(C4=CCOCC4)cc13)CCC2,"binding, competition with immobilised ligand",1 µM,,remaining binding,100%
C=CC(=O)N1CCc2ccc(-n3c(=O)ccc4cnc5ccc(-c6cnn(C)c6)cc5c43)cc21,KINOMEscan,1 µM,relative to: DMSO control,remaining binding,89%
O=C(Cc1ccc(OCc2ccccc2)cc1)NC1(C(=O)O)CCN(C(=O)c2ccc(-c3cccc(Cl)c3)cc2)CC1,"enzyme activity, inhibitor",10 µM,,activity vs control,108%
CC(C)=CC1OC(C)(C)C2C=C3C(=O)C(Cl)=CC(O)C3C3C(O)C4OC4C(=O)C132 (centres unmarked),"cell-free assay, competition with immobilised ligand",10 µM,,remaining binding,86%
COc1cc(Nc2nccc(-c3cnn4nc(OC)ccc34)n2)cc(C(F)(F)F)c1,"binding, competition with immobilised ligand",1 µM,,remaining binding,90%
CCn1cc(C(=O)O)c(=O)c2c(N)c(F)c(NC3CCCCC3)cc21,kinase activity,"0.1 µM, together with: ATP at Km",,inhibition,6.4%
Cc1ccc(-c2c(/C=C(\C#N)C(=O)NC(C)C)n(CCCO)c3ncnc(N)c23)cc1,"cell-free assay, competition with immobilised ligand",1 µM,,remaining binding,94%

# Some of these lines once more:
SMILES,test,setting,how to read,measurement,value
COc1cc(Nc2nc(C)cc(-c3cnn4nc(OC)ccc34)n2)cc(C(F)(F)F)c1,inhibitor,1 µM,relative to: control,remaining activity,100%
O=C(Cc1ccc(OCc2ccccc2)cc1)NC1(C(=O)O)CCN(C(=O)c2ccc(-c3cccc(Cl)c3)cc2)CC1,"enzyme activity, inhibitor",10 µM,,activity vs control,108%
